Results from different studies.
A part holds a random share of what one study measured.

Set 1 — technique: protein-binding microarray; molecule type: hairpin DNA; medium: in vitro; tested at: not given; relative to: not given; reading: higher = stronger binding; endpoint: median fluorescence; all sequences stand within: GAGGCC … GGCCTCACACTCTT
Target: POU domain, class 6, transcription factor 1, POU and homeodomain (POU6F1, Homo sapiens, UniProt Q14863, residues 311-611)
Notes: whole hairpin DNA, median over replicate spots
Residues (chain): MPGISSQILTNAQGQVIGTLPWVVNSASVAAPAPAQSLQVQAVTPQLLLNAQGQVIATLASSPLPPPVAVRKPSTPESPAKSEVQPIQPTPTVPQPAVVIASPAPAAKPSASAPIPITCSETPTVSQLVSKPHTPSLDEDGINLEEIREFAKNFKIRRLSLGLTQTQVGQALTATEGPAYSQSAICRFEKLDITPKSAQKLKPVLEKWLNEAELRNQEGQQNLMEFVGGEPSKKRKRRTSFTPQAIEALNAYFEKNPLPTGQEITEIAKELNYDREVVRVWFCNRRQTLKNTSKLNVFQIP
ACGATTAGGTGCCTCCTGGCACCTAATCGT: 357 a.u.
ATAACGAGGTGCCTCCTGGCACCTCGTTAT (5mC at 11): 593 a.u.
ATAATTACGTGCCTCCTGGCACGTAATTAT (5mC at 14): 975 a.u.
CTAATGAGGTGCCTCCTGGCACCTCATTAG (5mC at 7): 1430 a.u.
ATACTTAGGTGCCTCCTGGCACCTAAGTAT: 412 a.u.
ATAACGAGGTGCCTCCTGGCACCTCGTTAT: 410 a.u.
ATAATGAAGTGCCTCCTGGCACTTCATTAT: 979 a.u.
ATACGTAGGTGCCTCCTGGCACCTACGTAT: 332 a.u.
ATAATTAGGTGCCTCCTGGCACCTAATTAT: 2140 a.u.
ATAATGACGTGCCTCCTGGCACGTCATTAT (5mC at 14 28): 938 a.u.
ACAATTAGGTGCCTCCTGGCACCTAATTGT (5mC at 8): 546 a.u.
ATAATGTGGTGCCTCCTGGCACCACATTAT: 558 a.u.
AGAATGAGGTGCCTCCTGGCACCTCATTCT (5mC at 35): 433 a.u.
ATACGGAGGTGCCTCCTGGCACCTCCGTAT (5mC at 10 32): 332 a.u.
ATAGTTAGGTGCCTCCTGGCACCTAACTAT (5mC at 33): 407 a.u.
ATACGTAGGTGCCTCCTGGCACCTACGTAT (5mC at 32): 347 a.u.
ACGATTAGGTGCCTCCTGGCACCTAATCGT (5mC at 8 34): 353 a.u.
ATAGTGAGGTGCCTCCTGGCACCTCACTAT: 356 a.u.
ATAATTAGCGGCCTCCTGGCCGCTAATTAT (5mC at 15 27): 1650 a.u.
ATAATAAGGTGCCTCCTGGCACCTTATTAT: 935 a.u.
ATCGTTAGGTGCCTCCTGGCACCTAACGAT (5mC at 9): 333 a.u.
ATAATTAGCGGCCTCCTGGCCGCTAATTAT: 1470 a.u.

Set 2 — technique: protein-binding microarray; molecule type: double-stranded DNA, one strand shown; medium: in vitro; tested at: 0.8 µM; notes: whole 60-bp probe, no competitor; reading: higher = stronger binding; endpoint: fluorescence intensity
Target: Centromere-binding protein 1, full length, N-terminal tag (CBF1, Saccharomyces cerevisiae, UniProt P17106, residues 1-351)
UniProt P17106, sequence (whole entry, looked up): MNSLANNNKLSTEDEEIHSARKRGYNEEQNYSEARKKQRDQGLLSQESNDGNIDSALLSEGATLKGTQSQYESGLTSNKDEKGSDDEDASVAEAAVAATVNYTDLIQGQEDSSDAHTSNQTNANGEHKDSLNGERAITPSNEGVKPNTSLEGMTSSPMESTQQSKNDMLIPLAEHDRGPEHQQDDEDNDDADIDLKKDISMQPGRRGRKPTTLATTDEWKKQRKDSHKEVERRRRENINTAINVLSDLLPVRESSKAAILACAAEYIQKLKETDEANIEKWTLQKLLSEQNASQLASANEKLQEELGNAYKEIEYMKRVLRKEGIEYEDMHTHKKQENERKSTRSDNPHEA
GAAACGACTTGCGCACATGTGAATCATTAACAATAGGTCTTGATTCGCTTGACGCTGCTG: 876 a.u.
CTACAATAATAAAATCATCACCTCCGTTGCCTTTTCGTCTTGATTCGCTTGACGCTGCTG: 504 a.u.
GAATCCTAGGTCCATCAGCTACTGCACATTCTTTAGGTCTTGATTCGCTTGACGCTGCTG: 512 a.u.
GAAAATAATAGTATACAGGTGATTCTTATTTATTAGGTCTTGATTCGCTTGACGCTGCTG: 833 a.u.
CTATTTTTTCAGCATCACGAAGAAAAAAAGCTTTTCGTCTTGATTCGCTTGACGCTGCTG: 587 a.u.
GAAATGAAATAAGAAGTGATGATGCTAAAGTGGTAGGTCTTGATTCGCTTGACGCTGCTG: 543 a.u.
GAAACTTAAAAACTTCAAATCACGTATGAAAAATAGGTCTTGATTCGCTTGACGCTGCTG: 711 a.u.
CTAGTCTAAAGAACGTGCATCAGAGAAGAATGATTCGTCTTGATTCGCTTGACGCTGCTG: 697 a.u.
CTATTCAAAAATATAAACGTGGCTTATCTCAGATTCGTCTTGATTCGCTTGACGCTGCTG: 549 a.u.
CTATAATAAAATCATCACCTCCGTTGCCTTTAGTTCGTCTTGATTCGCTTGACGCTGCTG: 531 a.u.
GAATTTTTGATAATTCACGTGTAATTAAGAACATAGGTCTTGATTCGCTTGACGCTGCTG: 2900 a.u.
GAAACCACTGCTTTCCACCTGATTTACTCTCATTAGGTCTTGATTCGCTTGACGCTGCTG: 603 a.u.
GAATCCAAACCGTGGGAGGTGACGTTTCGGCACTAGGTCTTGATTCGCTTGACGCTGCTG: 484 a.u.
TGTACGAAGCTATCGTACGTGAATATAGTAGTTAGGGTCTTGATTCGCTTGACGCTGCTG: 496 a.u.
CTAGTGGGAAGGTATCATCACGTAAACTAAAACTTCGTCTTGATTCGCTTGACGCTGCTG: 512 a.u.
GAATAAGGCCTTTATGGTGTGAAGTGGGTTTTGTAGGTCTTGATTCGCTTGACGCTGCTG: 514 a.u.
CTAATCCCTGCGGTGGACGTGGCTAAAGAATAGTTCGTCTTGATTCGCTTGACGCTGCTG: 525 a.u.
GAATATCAGAGAAGTGGGGTGAGCAAAGTATAATAGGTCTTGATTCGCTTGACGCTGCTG: 568 a.u.
GAATCAAATTCGTCACACGTTTCCAATTTGCAATAGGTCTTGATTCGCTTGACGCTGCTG: 725 a.u.

Set 3 — technique: RNA Bind-n-Seq; molecule type: RNA; medium: in vitro; tested at: 365 nM; relative to: no-protein control; reading: higher = stronger binding; endpoint: RBNS enrichment (R)
Target: RNA binding protein fox-1 homolog 2, RRM domain, GST-SBP tag (RBFOX2, Homo sapiens, UniProt O43251-10, residues 100-194)
Notes: natural RNA segment, single round, ends assumed
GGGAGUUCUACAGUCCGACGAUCUAGAGGUGGGCUCAGAAUUCUAGUGCUAGGUAACACCCUAGGACACACCACAGCCCUAACACACCAGUUAUUCUCAGAGAAGCACUGCUCUGGAAGUUUGGCUACCUCUAUGGAAUUCUCGGGUGCCAA: 0.582
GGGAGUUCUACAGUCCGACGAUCCAGCUCCCAGUCAGACAACAGCCAGAAAUGUCUCCAGACUCUGCCCAGCCUCCCCAGGUAGCCACCCUCGAGACACGACCUCAGAGUCUCUGUGUCUCCUAGAAGCCUGAUGGAAUUCUCGGGUGCCAA: 0.433
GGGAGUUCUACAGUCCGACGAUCUUGCUGUCCCUACAAUAUAUAAGGUGACUUCUGGCCAUGCUGCCCUGCCAUUGGCGGCUCUGUGUGUUAAUAGGCUAGGGAGAGAGGGGUGCUGUCUGCCACUUGCUCCCUGGAAUUCUCGGGUGCCAA: 0.522
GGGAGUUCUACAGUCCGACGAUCAUUGCUUUUUUUCAGCAUCCCAAUUGUUAUAGGUUGCUCCUGAUAGAGGUAGCCACAGUCCUGGAGUACCAUAGGGUGAUGUUCCUUCUGCAUGCAUCUGCAGGGCCUGUUGGAAUUCUCGGGUGCCAA: 6.59
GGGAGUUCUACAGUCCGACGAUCCUUGAACUUCUGAUCCUGCCUAUCUGUUCUAUGUGAGUGGCAUCUGGGCCCCUAACCUGUCAGUUCACCCAUCUAGACCAGAGUCUGUAGCCAGACCUGGCCCACUGCCUUGGAAUUCUCGGGUGCCAA: 0.413
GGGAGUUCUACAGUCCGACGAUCUUUGGAAAGAUGUUAAGCAUUUAUUUUUAGUUAAAAAUAAAAACUAAUUUCAUACUAUUUAGAUUUUCUUUUUUAUCUUGCACUUAUUGUCCCCUUUUUAGUUUUUUUUGUGGAAUUCUCGGGUGCCAA: 0.927
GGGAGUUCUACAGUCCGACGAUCGCUCCUCUAGUUCCAGCUCGUCAGACUCGGACUCAGAGUGUGAAUCUGGGUCAGAAGGUGAUGGGACGACACACCGCAGGAAGAAGAGGAGAACCUGCAGCAUGGUGGGAUGGAAUUCUCGGGUGCCAA: 7.07
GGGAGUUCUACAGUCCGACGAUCAUUUGAAAGAUUGAGCCAAAUUCUGUUGUCAGUUCUAAGCAUGCAGUUCUCACCUCCAUUUAGUCCCCCAUCAGAACAGAGGUCAGGAAUUUAGCUGGGGAGCCUAAAUUUGGAAUUCUCGGGUGCCAA: 20.9

Set 4 — technique: aptamer microarray, sandwich; molecule type: DNA with 2'F-ANA; medium: in vitro; tested at: 200 nM; together with: Cy3 exosite-II aptamer, 400 nM; reading: higher = stronger binding; endpoint: mean fluorescence intensity; sequence: GGTTGGTGTGGTTGG
Target: Prothrombin, mature alpha-thrombin (F2, Homo sapiens, UniProt P00734)
Notes: whole 15-mer aptamer, many near background
2'F-ANA at 1 2 6 8 9 10 12 13 14 15: 87 a.u.
2'F-ANA at 1 2 4 6 8 10 11 12 15: 70.8 a.u.
2'F-ANA at 2 3 5 9 10 12 14 15: 51.9 a.u.
2'F-ANA at 2 4 5 7 8 11 12 13: 82.9 a.u.
2'F-ANA at 3 4 7 10 12 13: 332 a.u.
2'F-ANA at 2 4 5 9 12 13 14 15: 47.3 a.u.
2'F-ANA at 1 2 6 8 9 11 12 14 15: 64.3 a.u.
2'F-ANA at 1 2 4 6 9 10 11 12 14: 94.6 a.u.
2'F-ANA at 1 3 5 8 9 12 14 15: 47.7 a.u.
2'F-ANA at 2 4 7 8 10 11 12 15: 119 a.u.
2'F-ANA at 2 3 6 9 10 11: 276 a.u.
2'F-ANA at 1 8 10 11 12: 64.4 a.u.
2'F-ANA at 1 8 10 11 13 15: 52 a.u.
2'F-ANA at 2 6 10 11: 144 a.u.
2'F-ANA at 1 3 8 9 14 15: 92.2 a.u.
2'F-ANA at 4 6 8 9 10 11 15: 70.5 a.u.
2'F-ANA at 2 3 4 8 9 10 12 14: 192 a.u.
2'F-ANA at 1 2 4 5 6 7 13: 53.1 a.u.
2'F-ANA at 7 12 13 15: 777 a.u.
2'F-ANA at 2 9 15: 406 a.u.
2'F-ANA at 1 2 4 5 6 7 10 12 13 14: 59.1 a.u.
2'F-ANA at 2 3 5 6 7 9 14: 46 a.u.
